Published values of several laboratories.
Protocols differ between the studies behind these lines. ± marks the error that the study gave. Ends that are not written are not given here. * marks the point of attachment.

Substance	assay	test system	setting	how to read	endpoint	result
oxytocin-d5		rhesus monkey, CSF	intranasal, 80 IU, 0 to 60 min	relative to: intranasal saline	endogenous oxytocin level	no effect
Neuropeptide Y	perfusion pressure	cirrhotic rat, isolated perfused liver	0.1 nM to 5 µM, with: methoxamine 100 µM		hepatic vascular resistance	increased
C[C@H]1C[C@H]2CSC(N)=N[C@@]2(c2nc(NC(=O)c3ccc(OC(F)F)cn3)cs2)CO1	measured: CSF Aβx-42	healthy adults	125 mg once daily, 14 days, day 15	relative to: placebo-adjusted baseline	change from baseline	-79.6%
Cc1c(C)c2c(c(C)c1OCc1ccccc1)CCC(C)(C(=O)NN=C1C(=O)Nc3ccc(Cl)cc31)O2 (stereo not drawn)	seizure protection	male CF-1 mice	intraperitoneal, 0.5 h, with: maximal electroshock		minimal effective dose	100 mg/kg
CCCCCNc1oc2c(C)ncc(CO)c2c1Nc1ccccn1	adjuvant activity, measured: anti-α-lactalbumin IgG	New Zealand White rabbit	intramuscular, 100 µg, day 38, unit not given, with: bovine α-lactalbumin 100 µg	relative to: pre-immune titre	IgG titre rise	> 1000
NCCCC[C@@H]1NC(=O)[C@@H](Cc2c[nH]c3ccccc23)NC(=O)[C@H](c2ccccc2)NC(=O)[C@@H]2C[C@@H](OC(=O)NCCN)CN2C(=O)[C@H](Cc2ccccc2)NC(=O)[C@H](Cc2ccc(OCc3ccccc3)cc2)NC1=O	GHRH-stimulated GH secretion	healthy human volunteers	subcutaneous, 10 µg, with: GHRH 1 µg/kg	relative to: pre-dose baseline	GH AUC(0-2h) change	1%
CC[C@H](C)[C@H](NC(=O)[C@H](CO)NC(=O)[C@H](CCC(N)=O)NC(=O)[C@H](CC(C)C)NC(=O)[C@H](Cc1ccc(O)cc1)NC(=O)[C@H](CCCCN)NC(=O)[C@H](CCCCN)NC(=O)[C@H](C)NC(=O)[C@H](C)NC(=O)[C@@H](NC(=O)[C@H](CCC(N)=O)NC(=O)[C@H](CCCCN)NC(=O)[C@H](CCCNC(=N)N)NC(=O)[C@H](CC(C)C)NC(=O)[C@H](CCCNC(=N)N)NC(=O)[C@@H](NC(=O)[C@H](Cc1ccc(O)cc1)NC(=O)[C@H](CC(N)=O)NC(=O)[C@H](CC(=O)O)NC(=O)[C@@H](NC(=O)[C@H](Cc1ccccc1)NC(=O)[C@@H](NC(=O)[C@H](C)NC(=O)[C@H](CC(=O)O)NC(=O)[C@H](CO)NC(=O)[C@@H](N)Cc1c[nH]cn1)C(C)C)[C@@H](C)O)[C@@H](C)O)C(C)C)C(=O)N[C@@H](CCCCN)C(=O)N[C@@H](CC(N)=O)C(=O)N[C@@H](CCCCN)C(=O)N[C@@H](CCCNC(=N)N)C(=O)N[C@@H](Cc1ccc(O)cc1)C(N)=O	IPGTT	db/db mouse	intraperitoneal, 20 nmol/kg, 5 to 15 min, dosed 15 min before glucose	relative to: normal saline	first-phase insulin secretion AUC	0.82 fold
COc1c(C)c(C)c2c(c1C)CCC(C)(C(=O)NN=C1C(=O)Nc3ccc(F)cc31)O2 (stereo not drawn)	seizure protection	male CF-1 mice	intraperitoneal, 0.5 h, with: maximal electroshock		minimal effective dose	100 mg/kg
SIYNFEKL	flow cytometry, measured: CD44hi CD8+ T cells	peptide, OT-I CD8+ T cells, mouse	dose not given, primed 5 days, TGF-β1 from day 2 onward, with: 20 ng/mL TGF-β1		IL-2+ TNF-α+ cells	4.47%
CS/C(S)=N/CCCC[S+](C)[O-] (racemic)	RT-PCR, measured: Nos2 (inducible)	rat, liver	oral gavage, 200 mg/kg, 96 h, dosed for four days	relative to: vehicle	mRNA fold change	0.658
C[C@]12CCCN1CC1=NNC(=O)c3cc(F)cc4[nH]c2c1c34	PARylation, measured: PAR	MDA-MB-436 xenograft, mouse, tumour	5.45 mg/kg single dose, 24 h		inhibition	53%
O=C1N=C(NN=C2C(=O)Nc3ccccc32)SC1=C1c2ccccc2-c2nc3cc(F)ccc3nc21		mice with STZ-induced diabetes	oral, 25 mg/kg, 288 h, day 12		blood glucose	227 ± 48.6 mg/dL
Cc1cc(C(=O)/C(=C/c2cc(Br)cs2)c2cc(Br)cs2)c(C(=O)N2CCCCC2)c(=O)[nH]1	cell proliferation, MTT	35404 melanoma brain metastasis, human patient-derived	72 h, tested up to 10 µM		IC50	> 10 µM
Polymyxin B		human whole blood	50 ng/mL, 4 h, 37 °C, with: E. coli LPS 0.5 ng/mL	relative to: LPS without compound	IL-1β release	31.1 ± 9.6%
COc1ccc2c(c1)CC[C@H](CN(C)CC(=O)O)[C@@H]2c1ccccc1		rat, prefrontal cortex microdialysate	oral gavage, 10 mg/kg/day, 2 weeks, PCP-treated rats		basal dopamine level	0.54 ± 0.35 pg/10 µL
CCOc1ccc(Cc2cc([C@]34OC[C@](CO)(O3)[C@@H](O)[C@H](O)[C@H]4O)ccc2Cl)cc1		human, type 2 diabetes, mild renal impairment	dose not given, 24 h	relative to: normal renal function median	urinary glucose excretion	~53%
CC(=O)c1sc(NN=C2c3ccccc3-c3nc4cc(F)ccc4nc32)nc1C		mice with STZ-induced diabetes	oral, 25 mg/kg, 216 h, day 9		blood glucose	202 ± 3.6 mg/dL
CC(C)[C@H](NC(=O)[C@@H]1CSSC(C)(C)[C@H](NC(=O)[C@@H](N)CC(=O)O)C(=O)N[C@@H](Cc2ccccc2)C(=O)N[C@H](Cc2c[nH]c3ccccc23)C(=O)N[C@@H](CCCN)C(=O)N[C@@H](Cc2ccc(N)cc2)C(=O)N1)C(=O)O		male Wistar rat, anaesthetised	intracavernous, 0.03 nmol		intracavernous pressure AUC	242 ± 33.8 mmHg·s
SIIVFEKL	flow cytometry, measured: CD44hi CD8+ T cells	peptide, OT-I CD8+ T cells, mouse	dose not given, primed 5 days, TGF-β1 from day 2 onward, with: 20 ng/mL TGF-β1		single cytokine producers	17.7%
PHGYFLPGQFA	ELISA or Luminex	peptide, mouse peritoneal macrophages, C57BL/6 mouse	optimal dose within 0.1 pM to 100 nM, 1 h pretreatment, 15 h stimulation, with: LPS 100 ng/mL + IFN-γ 20 ng/mL	relative to: LPS/IFN-γ stimulated control	inhibition of RANTES release	0%
Cc1c(C)c2c(c(C)c1O)CCC(C)(C(=O)NN=C1C(=O)N(C)c3cc(Cl)ccc31)O2 (stereo not drawn)	seizure protection	male CF-1 mice	intraperitoneal, 0.5 h, with: maximal electroshock		minimal effective dose	30 mg/kg
PHGYFLPGQFAFS	cytokine expression suppression	peptide, mouse peritoneal macrophages, C57BL/6 mice	1 h pretreatment, with: LPS/IFN-γ 15 h		optimal dose	100 pM
CC(=O)c1sc(N=C2c3ccccc3-c3nc4cc(F)ccc4nc32)nc1C		mice with STZ-induced diabetes	oral, 25 mg/kg, 216 h, day 9		blood glucose	252 ± 13.5 mg/dL
Cc1cccc2c1ccc1cc3ccccc3cc12	adrenal haemorrhage prevention	rat	oral, with: 7,12-DMBA 5 mg i.v.		minimal protective dose	0.5 mg

Substance	assay	test system	setting	how to read	endpoint	result
C[C@H](NC(=O)c1c(N)nn2cccnc12)c1cc2cccc(C#Cc3cnn(C)c3)c2c(=O)n1-c1ccccc1	RECIST	human	20 mg		time to partial response	11.1 months
CCOC(=O)c1sc(NN=C2c3ccccc3-c3nc4cc(F)ccc4nc32)nc1C		mice with STZ-induced diabetes	oral, 25 mg/kg, 216 h, day 9		blood glucose	275 ± 24 mg/dL
COc1ccc(S(=O)(=O)N(Cc2cccnc2)[C@@H](C(=O)NO)C(C)C)cc1		rat, isolated perfused heart	dose not given, stunning, global no-flow ischaemia 20-25 min		ventricular weight	87.9 ± 2.2 mg
CC(C)C[C@H](NC(=O)[C@H](CO)NC(=O)[C@H](CCCNC(=N)N)NC(=O)[C@H](CC(=O)O)NC(=O)[C@H](CCC(=O)O)NC(=O)[C@H](C)NC(=O)[C@@H]1CCCN1C(=O)[C@H](C)NC(=O)[C@H](CCC(=O)O)NC(=O)[C@@H]1CCCN1C(=O)[C@@H]1CCCN1)C(N)=O	HPLC-EC	rat F344, normal, substantia nigra	intranasal, 300 µg 5 days per week, 3 weeks		HVA level	81 ± 7 ng/g
COc1c(C)c(C)c2c(c1C)CCC(C)(C(=O)NN=C1C(=O)Nc3ccccc31)O2 (stereo not drawn)	seizure protection	male CF-1 mice	intraperitoneal, 0.5 h, with: pentylenetetrazole 60 mg/kg subcutaneous		minimal effective dose	100 mg/kg
Cc1cc2cc3ccccc3cc2c2ccccc12	adrenal haemorrhage prevention	rat	oral, with: 7,12-DMBA 5 mg i.v.		minimal protective dose	0.5 mg
O=C(O)Cc1ccccc1Nc1c(Cl)cccc1Cl	paw edema	rat carrageenan paw edema	oral, 12.5 mg/kg, 2 h	relative to: vehicle	inhibition	52%
Cc1ccc2c(ccc3cc4ccccc4cc32)c1	adrenal haemorrhage prevention	rat	oral, with: 7,12-DMBA 5 mg i.v.		minimal protective dose	0.5 mg
CC(=O)N[C@@H](CCCCN)C(=O)N[C@@H](CC(C)C)C(=O)N[C@@H](CC(=O)O)C(=O)N[C@@H](CC(C)C)C(=O)N[C@@H](CCCCN)C(=O)N[C@@H](CC(C)C)C(=O)N[C@@H](CC(=O)O)C(=O)N[C@@H](CC(C)C)C(=O)N[C@@H](CCCCN)C(=O)N[C@@H](CC(C)C)C(=O)N[C@@H](CC(=O)O)C(=O)N[C@@H](CC(C)C)C(N)=O	TUNEL	Sprague Dawley rat, knee OA model, cartilage	intra-articular, dose not given, 6 weeks		apoptotic chondrocytes	9%
TLQPPASSRRRHAHHALPPAR		peptide, rat stomach fundus strips	3 µM	relative to: TLQP-21	contractile activity	88 ± 9%
Cc1cccc(N(O)N=Nc2ccc(S(=O)(=O)Nc3cc(C)on3)cc2)c1	paw oedema	rat, carrageenan oedema	oral, 100 mg/kg, 2 h after carrageenan	relative to: vehicle	inhibition	45.1%
Cc1c(C)c2c(c(C)c1O)CCC(C)(C(=O)NN=C1C(=O)N(C)c3ccccc31)O2 (stereo not drawn)	seizure protection	male CF-1 mice	intraperitoneal, 0.5 h, with: pentylenetetrazole 60 mg/kg subcutaneous		minimal effective dose	100 mg/kg
Cc1ccc(S(=O)(=O)NC(=O)NN2CC3CCCC3C2)cc1 (stereo not drawn)		mice with STZ-induced diabetes	oral, 25 mg/kg, 216 h, day 9		blood glucose	165 ± 4.1 mg/dL
Cc1cccc(N(O)N=Nc2ccc(S(=O)(=O)Nc3nccs3)cc2)c1	paw oedema	rat, carrageenan oedema	oral, 100 mg/kg, 4 h after carrageenan	relative to: vehicle	inhibition	74.3%
insulin aspart	euglycaemic glucose clamp	elderly type 1 diabetes	subcutaneous, 0.2 U/kg		time to early 50% GIRmax	37.7 min
Palmitoyl-SMTSCAPS (N-palmitoyl; Palmitoyl = CCCCCCCCCCCCCCCC(=O)*)		SCID mouse, subcutaneous AsPC-1 xenograft, tumour tissue	intratumoral, 500 µg/mouse/day, 3 weeks		Ki67-positive nuclei	44.4 ± 3.94%
COc1ccc2c(c1)c(CC(=O)O)c(C)n2C(=O)c1ccc(Cl)cc1	multiplex bead immunoassay, measured: IP-10	CD-1 mice, serum	ip, 20 mg/kg, three-injection regimen, with: LPS 3 mg/kg		cytokine level	492 ± 135 pg/mL
Cc1cc(C)c(/C=C2\C(=O)Nc3ccccc32)[nH]1	MRI	human	concentration not given, 3.1 months		tumour area	1.46 cm²
Cc1c(C)c2c(c(C)c1OCc1ccccc1)CCC(C)(C(=O)NN=C1C(=O)N(C)c3ccccc31)O2 (stereo not drawn)	seizure protection	male CF-1 mice	intraperitoneal, 4 h, with: pentylenetetrazole 60 mg/kg subcutaneous		minimal effective dose	100 mg/kg
COc1ccnc(C[S+]([O-])c2nc3ccc(OC(F)F)cc3[nH]2)c1OC (stereo not drawn)		human poor metabolizer	40 mg/day, day 6, 5 days dosing		intragastric pH	5.25 ± 0.35
CCCC(CCC)C(=O)O	seizure protection	male CF-1 mice	intraperitoneal, 4 h, with: pentylenetetrazole 60 mg/kg subcutaneous		minimal effective dose	200 mg/kg
CCCCCCCCCCCCCCCC(=O)NCCCC[C@H](NC(=O)[C@H](CCC(=O)O)NC(=O)[C@H](CCC(=O)O)NC(=O)[C@H](Cc1ccc(O)cc1)NC(=O)[C@H](CCC(=O)O)NC(=O)CCCCCNC(=S)Nc1ccc2c(c1)C(=O)OC21c2ccc(O)cc2Oc2cc(O)ccc21)C(=O)N[C@@H](Cc1ccc(O)cc1)C(=O)N[C@@H](CCC(=O)O)C(=O)NCC(=O)NCC(=O)NCC(=O)NCC(=O)N[C@@H](CO)C(=O)NCC(=O)NCC(=O)NCC(=O)NCC(=O)N[C@@H](CO)C(=O)N[C@@H](Cc1ccccc1)C(=O)N[C@@H](CC(N)=O)C(=O)N1CCC[C@H]1C(=O)N[C@@H](CCCNC(=N)N)C(=O)N[C@@H](Cc1c[nH]cn1)C(=O)NC(C)(C)C(=O)N[C@@H](CCC(=O)O)C(=O)NCC(=O)N[C@H](C(=O)N[C@@H](Cc1ccccc1)C(=O)N[C@H](C(=O)N[C@@H](CO)C(=O)N[C@@H](CC(=O)O)C(=O)N[C@H](C(=O)N[C@@H](CO)C(=O)N[C@@H](CO)C(=O)N[C@@H](Cc1ccc(O)cc1)C(=O)N[C@@H](CC(C)C)C(=O)N[C@@H](CCC(=O)O)C(=O)NCC(=O)N[C@@H](CCC(N)=O)C(=O)N[C@@H](C)C(=O)N[C@@H](C)C(=O)N[C@@H](CCCCN)C(=O)N[C@@H](CCC(=O)O)C(=O)N[C@@H](Cc1ccccc1)C(=O)N[C@H](C(=O)N[C@@H](C)C(=O)N[C@@H](Cc1c[nH]c2ccccc12)C(=O)N[C@@H](CC(C)C)C(=O)N[C@H](C(=O)N[C@@H](CCCCN)C(=O)NCC(=O)N[C@@H](CCCNC(=N)N)C(=O)NCC(=O)O)C(C)C)[C@@H](C)CC)C(C)C)[C@@H](C)O)[C@@H](C)O		db/db mouse	subcutaneous, 10, 30 and 90 nmol/kg twice weekly, 8 weeks	relative to: saline	HbA1c	decreased
Cc1c(C)c2c(c(C)c1OCc1ccccc1)CCC(C)(C(=O)NN=C1C(=O)Nc3ccc(F)cc31)O2 (stereo not drawn)	seizure protection	male CF-1 mice	intraperitoneal, 0.5 h, with: maximal electroshock		minimal effective dose	300 mg/kg
Cc1noc(NS(=O)(=O)c2ccc(N=NN(C)O)cc2)c1C	paw oedema	rat, carrageenan oedema	oral, 100 mg/kg, 2 h after carrageenan	relative to: vehicle	inhibition	30.3%

Excerpt of the above:
Substance	assay	test system	setting	how to read	endpoint	result
Cc1cccc(N(O)N=Nc2ccc(S(=O)(=O)Nc3cc(C)on3)cc2)c1	paw oedema	rat, carrageenan oedema	oral, 100 mg/kg, 2 h after carrageenan	relative to: vehicle	inhibition	45.1%
Cc1c(C)c2c(c(C)c1O)CCC(C)(C(=O)NN=C1C(=O)N(C)c3ccccc31)O2 (stereo not drawn)	seizure protection	male CF-1 mice	intraperitoneal, 0.5 h, with: pentylenetetrazole 60 mg/kg subcutaneous		minimal effective dose	100 mg/kg
Cc1ccc(S(=O)(=O)NC(=O)NN2CC3CCCC3C2)cc1 (stereo not drawn)		mice with STZ-induced diabetes	oral, 25 mg/kg, 216 h, day 9		blood glucose	165 ± 4.1 mg/dL
